# Measurements gathered from unrelated publications.
# Each line is one published result; not all experiments were run side by side. ± gives the spread as reported.
SMILES,target,assay,system,setting,scale,quantity,value
CCC(C)Sc1nc2c([nH]1)c(=S)n(C)c(=O)n2C (stereo not shown),"Progesterone receptor (PGR, Homo sapiens, UniProt P06401)","reporter gene, antagonist, MMTV-luciferase",T47D/A1-2,"10 µM, 24 h, together with: 5 nM progesterone",baseline: maximal activity,remaining activity,86%
CC[C@H](C)[C@H](NC(=O)[C@H](CC(N)=O)NC(=O)[C@H](CC(N)=O)NC(=O)[C@@H](N)CCCNC(N)=O)C(=O)N1C[C@@H](n2cc(-c3ccc(N)cc3)nn2)C[C@H]1C(=O)N[C@@H](Cc1c[nH]c2ccccc12)C(=O)N[C@@H](CO)C(N)=O,"Envelope glycoprotein gp160, gp120 (env, Human immunodeficiency virus type 1 group M subtype B, UniProt P35961)",,HIV-1,concentration not given,,activity class,active
O=C1SCCC1NC(C(=O)NCc1ccccc1)C1CC1 (stereo not shown),"Thiosulfate sulfurtransferase (TST, Homo sapiens, UniProt Q16762)","activator, refers to: sodium thiosulfate",,"17.1 µM, together with: KCN 60 mM",,Km,51.1 ± 19.1 mM
CCN(Cc1ccccc1)C(=O)CCc1nc(CN2CCN(C(=O)Cc3ccc(OC)c(OC)c3)CC2)no1,"Potassium voltage-gated channel subfamily KQT member 4 (KCNQ4, Homo sapiens, UniProt P56696)","potassium current, whole-cell patch clamp","CHO, stable",10 nM,,activation V1/2,-19 ± 1.14 mV
COc1cc(COc2ccc3c(c2)CN(C(=O)[C@H](CCC(=O)O)NC(=O)[C@H](CC(=O)O)NC(=O)[C@H](CC(=O)O)NC(=O)[C@H](CCC(=O)O)NC(=O)[C@@H](CCCNC(=N)N)NC(=O)[C@@H](CCCNC(=N)N)NC(=O)[C@@H](CCCNC(=N)N)NC(=O)[C@H](C)N(C)C(=O)[C@H](Cc2ccccc2)NC(=O)[C@@H](NC(=O)[C@H](Cc2ccccc2)NC(=O)[C@H](C)NC(=O)[C@H](CCCNC(=N)N)N(C)C(=O)[C@@H]2CCCN2C(=O)[C@H](CCCNC(=N)N)NC(=O)CNC(=O)c2ccc4c(c2)C2(OC4=O)c4ccc(O)cc4Oc4cc(O)ccc42)[C@@H](C)OCc2cc(OC)c(OC)cc2[N+](=O)[O-])[C@H](C(=O)N[C@@H](CCC(=O)O)C(=O)N[C@@H](CCC(=O)O)C(=O)N[C@H](C(N)=O)C(C)C)C3)c([N+](=O)[O-])cc1OC,"RAC-alpha serine/threonine-protein kinase (AKT1, Homo sapiens, UniProt P31749)","reporter phosphorylation, substrate",,"concentration not given, 60 min, without photoactivation",,phosphorylation,3.3 ± 0.9%
CC[C@H](C)[C@H](NC(=O)[C@H](Cc1c[nH]cn1)NC(=O)[C@H](CCCCNC(=O)[C@@H](NC(=O)[C@H](CCCCN)NC(=O)CSC[C@H](NC(=O)[C@H](Cc1ccccc1)NC(=O)[C@H](CCCCNC(=O)[C@H](CC(C)C)NC(=O)[C@@H]1CCCN1C(=O)[C@H](CCCCN)NC(=O)C[C@@H]1O[C@@H](C)[C@@H](O)[C@@H](O)[C@@H]1O)NC(=O)[C@H](CC(C)C)NC(=O)[C@@H]1CCCN1C(=O)[C@H](CCCCN)NC(=O)C[C@@H]1O[C@@H](C)[C@@H](O)[C@@H](O)[C@@H]1O)C(N)=O)[C@@H](C)CC)NC(=O)[C@@H](NC(=O)[C@H](CCCCN)NC(=O)CSC[C@H](NC(=O)[C@H](Cc1ccccc1)NC(=O)[C@H](CCCCNC(=O)[C@H](CC(C)C)NC(=O)[C@@H]1CCCN1C(=O)[C@H](CCCCN)NC(=O)C[C@@H]1O[C@@H](C)[C@@H](O)[C@@H](O)[C@@H]1O)NC(=O)[C@H](CC(C)C)NC(=O)[C@@H]1CCCN1C(=O)[C@H](CCCCN)NC(=O)C[C@@H]1O[C@@H](C)[C@@H](O)[C@@H](O)[C@@H]1O)C(N)=O)[C@@H](C)CC)C(N)=O,"Fucose-binding lectin PA-IIL (lecB, Pseudomonas aeruginosa, UniProt Q9HYN5)","binding, isothermal titration calorimetry",,divided by fucoside copies,baseline: monovalent fucoside KD over ligand KD,relative potency per fucoside,2.2
NCCCCCO[C@H]1O[C@H](CO[C@H]2O[C@H](CO[C@H]3O[C@H](CO)[C@@H](O)[C@H](O)[C@@H]3O[C@H]3O[C@H](CO)[C@@H](O)[C@H](O)[C@@H]3O)[C@@H](O)[C@H](O[C@H]3O[C@H](CO)[C@@H](O)[C@H](O)[C@@H]3O[C@H]3O[C@H](CO)[C@@H](O)[C@H](O)[C@@H]3O)[C@@H]2O)[C@@H](O)[C@H](O[C@H]2O[C@H](CO)[C@@H](O)[C@H](O)[C@@H]2O[C@H]2O[C@H](CO)[C@@H](O)[C@H](O)[C@@H]2O[C@H]2O[C@H](CO)[C@@H](O)[C@H](O)[C@@H]2O)[C@@H]1O,"Griffithsin (Griffithsia sp., UniProt P84801)",isothermal titration calorimetry,,"concentration not given, together with: griffithsin",,binding stoichiometry,1.42 ± 0.47
N#Cc1nc(N2CCOCC2)nc(N(Cc2ccc(F)cc2)CC2CCCOC2)n1 (stereo not shown),"CPL (Toxoplasma gondii, UniProt Q6DMN0)","enzyme activity, inhibitor",,,baseline: human over Toxoplasma IC50,selectivity ratio,3.5
CC1(C(=O)O)CCCC2(C)C1CCC1(C)c3cocc3CCC12 (stereo not shown),"Androgen receptor (AR, Homo sapiens, UniProt P10275)","reporter gene, antagonist",CV-1 transfected with AR,"10 µM, 24 h, together with: R1881 1 nM",,transcriptional activity,no effect
OC(COCc1ccccc1Cl)CN1CC=C(c2c[nH]c3ccccc23)CC1 (racemic),"Sodium-dependent serotonin transporter (SLC6A4, Homo sapiens, UniProt P31645)",,HEK293 expressing SLC6A4,"concentration not given, together with: [3H]serotonin",baseline: MI-17,uptake inhibition potency fold increase,3 fold
NC(=O)Cc1cc(=O)oc2cc(NC(=O)[C@@H](N)CCc3ccc(O)cc3)ccc12,"Aminopeptidase N (Neisseria meningitidis, UniProt Q9JYV4)","enzyme activity, substrate",,"3 µM, pH 7.5, 37 °C",baseline: L-hArg-ACC,relative hydrolysis rate,38.5 to 74%
CC(=O)N[C@H]1C(O)O[C@H](CO)[C@@H](O[C@@H]2O[C@H](CO)[C@H](O)[C@H](O)[C@H]2O)[C@@H]1O (stereo partly shown),"Galectin-3 (LGALS3, Homo sapiens, UniProt P17931)","binding, isothermal titration calorimetry",,full-length protein,,–ΔH,12.7 kcal/mol
CCC(CC)OC1C=C(C(=O)OC(C)OC(=O)C(N)C(C)C)CC(NC(=N)N)C1NC(C)=O (mixture of isomers),"Serine hydrolase BPHL (BPHL, Homo sapiens, UniProt Q86WA6)","enzyme activity, substrate",,pH 7.4,,Km,2.37 mM
CC(C)P(=S)(NP(=[Se])(C(C)C)C(C)C)C(C)C,"Alpha-amylase (Bacillus subtilis, UniProt P00691)","binding, Van't Hoff analysis",,"pH 6.8, 298–310 K",,ΔH,-19 kcal/mol
O=C(O)/C=C/c1cc(O)cc(O)c1,"Cholinesterase (BCHE, Homo sapiens, UniProt P06276)","enzyme activity, inhibitor, Ellman",,250 µg/mL,,inhibition,63.4%
CC(=O)NC(Cc1ccc(Br)c(Cl)c1)C(=O)N[C@@H](C)C(=O)N1CCC[C@H]1C(=O)N1CCC[C@H]1C(=O)N[C@@H](CCC(=O)O)C(=O)N[C@@H](Cc1c[nH]cn1)C(=O)N[C@@H](CO)C(=O)N[C@H](C(=O)N[C@@H](C)C(N)=O)[C@@H](C)OP(=O)(O)O (stereo partly shown),"Activin receptor type-1B (ACVR1B, Homo sapiens, UniProt P36896)","enzyme activity, inhibitor",,10 µM,,inhibition,5.63%

# Excerpt of the above:
SMILES,target,assay,system,setting,scale,quantity,value
OC(COCc1ccccc1Cl)CN1CC=C(c2c[nH]c3ccccc23)CC1 (racemic),"Sodium-dependent serotonin transporter (SLC6A4, Homo sapiens, UniProt P31645)",,HEK293 expressing SLC6A4,"concentration not given, together with: [3H]serotonin",baseline: MI-17,uptake inhibition potency fold increase,3 fold
NC(=O)Cc1cc(=O)oc2cc(NC(=O)[C@@H](N)CCc3ccc(O)cc3)ccc12,"Aminopeptidase N (Neisseria meningitidis, UniProt Q9JYV4)","enzyme activity, substrate",,"3 µM, pH 7.5, 37 °C",baseline: L-hArg-ACC,relative hydrolysis rate,38.5 to 74%
